Measurements from different studies.
Numbered parts are unrelated; each lists some results of a single study. Changes are numbered by the printed parent chain.

Series 1
Target: TAR DNA-binding protein 43, full length, His tag (TARDBP, Homo sapiens, UniProt Q13148, residues 1-414)
Method: RNA Bind-n-Seq
Molecule type: RNA
Sample: in vitro
Concentration: 20 nM
Setting: 6-mer, flanks averaged, single round
Together with: 150 mM KCl
Reference: input library
Reading: higher = stronger binding
Quantity: 6-mer enrichment (R)
AGAUUG: 0.761
UGAUGG: 1.43
GAAAGC: 0.807
GCAAUU: 0.662
CCGUAA: 0.622
UGAGUA: 0.885
CGGUAA: 0.811
UGGUUG: 1.25
GGGUAC: 2.01
UAGAUG: 0.85
ACGUGU: 0.891
GGUCAA: 0.955
UCCAAU: 0.595
GCUUAU: 0.628
AUUUAC: 0.595
UUCCCA: 0.594
CCACAG: 0.75
UCAAUG: 0.665

Series 2
Target: ATF1, bZIP domain (human)
Method: DHFR protein complementation
Sample: yeast
Setting: single substitutions, most at no-binding floor
Reference: wild-type JUN-FOS pair
Reading: higher = stronger binding
Quantity: binding fitness
Starting sequence: JUN, bZIP domain (human); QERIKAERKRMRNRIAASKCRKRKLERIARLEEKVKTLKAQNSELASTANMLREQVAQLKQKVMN; partner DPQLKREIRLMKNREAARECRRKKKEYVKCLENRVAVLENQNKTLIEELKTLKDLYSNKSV
S47F: -1.51 natural log
S43F: -1.53 natural log
A49Y: -1.55 natural log
I28S: -1.52 natural log
V35K: -1.45 natural log
T48L: -1.54 natural log
K39L: -1.53 natural log
E54K: -1.49 natural log
N42A: -1.51 natural log
E32N: -1.52 natural log
I28D: -1.45 natural log
L31S: -1.55 natural log
V35Y: -1.55 natural log
K34H: -1.45 natural log
A57E: -1.45 natural log
L31F: -1.49 natural log
L52V: -1.54 natural log
A57P: -1.5 natural log
A29W: -1.51 natural log
K39P: -1.57 natural log
L31K: -1.55 natural log
A29D: -1.22 natural log

Series 3
Target: Sal-like protein 4, full length isoform B (SALL4, Homo sapiens, UniProt Q9UJQ4-2, residues 1-616)
Method: universal PBM
Molecule type: double-stranded DNA, one strand shown
Sample: in vitro
Concentration: not given
Setting: 8-mer, flanks averaged, mean of replicates
Reading: higher = stronger binding
Quantity: E-score
AAGTACAT: 0.22
AAGTAGGT: -0.0645
CTAGTAAA: 0.237
CATAAGCG: 0.0218
TGCCGGAA: -0.17
TAGTCCCA: -0.0535
AGTACCCG: -0.135
AGTGAGGA: -0.0448
ATAGCAGA: 0.0661
CCGTGAAA: 0.00278
ACGGTAGT: -0.066
CAACCCCA: -0.147
GGTTAACA: 0.199
CCCTTTCC: -0.246
GGCCGAAC: -0.347
TGCCGAAA: -0.154
TACCAAGA: 0.137
AACAGTGT: 0.106
AGCGCCCG: -0.274
AGACAGCC: -0.195
AAGTTTCT: 0.123
CAGATACA: 0.211
GGGTCATA: 0.172
CATGGACG: -0.147
ACCTGCCG: -0.233

Series 4
Target: Histone acetyltransferase KAT6A, winged helix 2, GST fusion (KAT6A, Homo sapiens, UniProt Q92794, residues 85-181)
Method: protein binding microarray
Molecule type: double-stranded DNA, one strand shown
Sample: in vitro
Concentration: not given
Setting: 8-mer, flanks averaged, mean of 2 arrays, mostly near background
Reference: not given
Reading: higher = stronger binding
Quantity: E-score
Target sequence (chain): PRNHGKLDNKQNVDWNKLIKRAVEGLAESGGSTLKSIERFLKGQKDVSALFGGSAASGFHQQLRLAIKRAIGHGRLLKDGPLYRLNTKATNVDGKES
ACAGGCGT: -0.128
GGGTCTAA: 0.0254
CTTTAATC: 0.0641
CAGCCCAA: 0.0227
ATGTGAAT: 0.0129
CGACCGGC: 0.194
CCGCAGAC: 0.0484
ACCGTACG: -0.223
GGGGAGCA: -0.149
CACAACTC: -0.00671
ATAATTAC: 0.033
ATGGCATA: 0.0482
ATAGCGTC: -0.115
ATCCAGTA: -0.245
AGGAAACT: -0.0892
ACTCAGAC: 0.0336
AGCCCAAG: -0.0423
CGTTGTAA: -0.0678
ATGCGAAG: 0.0441

Series 5
Target: CCNF, cyclin fold, Cln2 fusion (human)
Method: yeast growth competition, sequencing
Sample: yeast
Setting: strong parent motif
Reference: not given
Reading: higher = stronger binding
Quantity: normalised enrichment score
Starting sequence: CDC6 docking peptide (human); TLKGRRLVFDNQL
TLKGRRLCFDNQL [V8C]: 9.24
TLKGARLVFDNQL [R5A]: 0.78
HLKGRRLVFDNQL [T1H]: 9.29
TLLGRRLVFDNQL [K3L]: 7.52
TLTGRRLVFDNQL [K3T]: 8.73
TMKGRRLVFDNQL [L2M]: 8.08
TLKTRRLVFDNQL [G4T]: 4.74
TLKGRRYVFDNQL [L7Y]: 1.36
TLKGRRLWFDNQL [V8W]: 8.15
TLKGRRLVFDNQK [L13K]: 7.88
TLKGRRGVFDNQL [L7G]: 0.503
TLKGCRLVFDNQL [R5C]: 1.71
TLFGRRLVFDNQL [K3F]: 8.09
TNKGRRLVFDNQL [L2N]: 7.4
TLKGRRLVFDNQM [L13M]: 8.23
TLKGRRLVFDLQL [N11L]: 8.74
TLVGRRLVFDNQL [K3V]: 8.35

Series 6
Target: CRIPT, C-terminal peptide
Method: DHFR complementation, deep sequencing
Sample: yeast
Setting: single substitutions, model-inferred values
Reference: wild type
Reading: higher = weaker binding
Quantity: binding free energy change
Starting sequence: ERBIN, PDZ domain 1 (human); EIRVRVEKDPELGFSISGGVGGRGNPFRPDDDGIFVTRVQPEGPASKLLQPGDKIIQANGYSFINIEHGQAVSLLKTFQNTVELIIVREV; partner TKNYKQTSV
P41V: 0.3 kcal/mol
V90S: 0.0169 kcal/mol
E7M: -0.139 kcal/mol
Q70T: -0.0192 kcal/mol
E1S: 0.115 kcal/mol
G19F: 1.23 kcal/mol
L74I: 0.0466 kcal/mol
A71P: 0.887 kcal/mol
G43N: 1.28 kcal/mol
I64S: -0.0277 kcal/mol
P51V: 0.26 kcal/mol
K47S: 0.053 kcal/mol
L49I: -0.217 kcal/mol
L74G: 0.623 kcal/mol
R23G: -1.66 kcal/mol
F27T: 1.2 kcal/mol
G60E: 0.0605 kcal/mol

Series 7
Target: ABI1, truncated, D143A, DHFR fusion (Arabidopsis thaliana)
Method: DHFR PCA, deep sequencing
Sample: yeast
Setting: methotrexate growth selection, single substitutions
Together with: (+)-ABA 0 µM
Reference: wild-type fitted maximum
Reading: higher = stronger binding
Quantity: relative binding score
Starting sequence: PYL1, truncated, DHFR fusion (Arabidopsis thaliana); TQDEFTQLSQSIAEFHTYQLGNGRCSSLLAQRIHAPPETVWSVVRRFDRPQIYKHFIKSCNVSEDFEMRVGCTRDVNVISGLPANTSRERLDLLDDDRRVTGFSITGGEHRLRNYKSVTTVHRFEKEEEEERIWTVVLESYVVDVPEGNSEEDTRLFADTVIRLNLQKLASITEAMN
C72V: 31.8%
D75Y: 27.2%
G71K: -1.79%
Q2E: 27.4%
E4G: 2.1%
S26H: 10.2%
D159C: -5.11%
I33Q: 4.74%
T1L: 32.1%
V136N: -2.22%
L166I: 4.04%
P37Q: 3.37%
P50K: -3.66%
G148Y: -16.3%

Single results of other studies
PhoQ, residues 284 288 289 292 302 303 TNASYF
fold induction (PhoP, residues 12 14 15 18 19 AGCRL (Escherichia coli, UniProt P23836); Sort-seq, measured: YFP reporter; E. coli; PhoQ-PhoP variant library, together with: 10 µM Mg2+; reference: high Mg2+ state, higher = stronger signaling): 4.74
